Published values of several laboratories.
Numbered parts are unrelated; each lists some results of a single study. Several values in a cell are separate wells, animals, samples, runs or records.

Sample 1
SMILES: C[C@@H]1CN(c2ccc(-c3cc(C(=O)NCCOCCOCCOCCOCCNC(=O)/C=C/c4[nH]cc(C(=O)N[C@@H](CC(N)=O)c5ccc(F)c(Cl)c5)c4-c4ccc(Cl)cc4F)ccc3F)cc2NC(=O)c2c[nH]c(=O)cc2C(F)(F)F)C[C@H](C)N1C
Mode: degrader
Time: 24 h
WDR5/DCAF1: WDR5/DCAF1 (Homo sapiens, UniProt P61964+Q9Y4B6)
target	technique	measured	tested at	reference	remaining protein level
WDR5/DCAF1	HiBiT luminescence		5.15 nM		102% and 109% and 107%
WDR5/DCAF1	HiBiT luminescence		34.2 nM		106% and 92.8% and 93.2%
WDR5/DCAF1	HiBiT luminescence		88.1 nM		100% and 92.8% and 101%
WDR5 (Homo sapiens, UniProt P61964)	Jess capillary immunoassay	WDR5 over vinculin	11 nM	DMSO	109% and 87.5% and 89.5% and 93.5% and 91.9% and 106%

Sample 2
Target: Homeodomain-interacting protein kinase 4 (HIPK4, Homo sapiens, UniProt Q8NE63)
Observed: enzyme activity
Mode: inhibitor
Tested at: 0.5 µM
Reference: control
Compound	remaining activity
COc1ccc(-c2cnc3c(-c4ccsc4)cnn3c2)cc1	108%
CN(C)CCCn1cc(C2=C(c3c[nH]c4ccccc34)C(=O)NC2=O)c2ccccc21	113%
CCC(=O)Nc1ccc2ncnc(Nc3cccc(Br)c3)c2c1	87.8%
O=C1NC(=O)/C(=C/c2ccc3nccnc3c2)S1	95%
Cn1cc(/C=C2\C(=O)Nc3ccc(S(N)(=O)=O)cc32)c2ccccc21	86.2%
CC(C)c1nn(-c2c(Cl)cccc2Cl)c2nc(Cc3ccc(OCCO)cc3)[nH]c(=O)c12	94.7%
Cn1cnc2cc3c(Nc4cccc(Br)c4)ncnc3cc21	88.6%
Nc1[nH]nc2nnc(-c3c(-c4ccccc4)nn4ccccc34)cc12	105%
CC(C)[C@H](CO)Nc1nc(Nc2cccc(Cl)c2)c2ncn(C(C)C)c2n1	88.7%
COc1cc2ncnc(N3CCN(C(=O)Nc4ccc(Oc5ccccc5)cc4)CC3)c2cc1OC	75.4%
CCOc1cc2ncnc(Nc3cccc(Br)c3)c2cc1OCC	89.9%

Sample 3
Structure (SMILES): Cc1cc(C)c(-n2ccn3nc(-c4cccnc4)cc23)cc1NC(=O)c1cc(C#N)cc(S(F)(F)(F)(F)F)c1
Observed: cell-free assay
Technique: competition with immobilised ligand
Tested at: 0.1 µM
target	remaining binding
TSSK3 (Homo sapiens, UniProt Q96PN8)	76.9%
NEK2 (Homo sapiens, UniProt P51955)	98.6%
PRPF4B (Homo sapiens, UniProt Q13523)	80.6%
Mast/stem cell growth factor receptor Kit, autoinhibited (KIT, Homo sapiens, UniProt P10721)	76.8%
MYLK4 (Homo sapiens, UniProt Q86YV6)	100%
EPHB3 (Homo sapiens, UniProt P54753)	100%
TRPM6 (Homo sapiens, UniProt Q9BX84)	80.2%
STK33 (Homo sapiens, UniProt Q9BYT3)	100%
MARK4 (Homo sapiens, UniProt Q96L34)	92.4%
RIPK2 (Homo sapiens, UniProt O43353)	84.5%
PLK3 (Homo sapiens, UniProt Q9H4B4)	81.8%
KIT (Homo sapiens, UniProt P10721, V559D)	45.6%
TLK1 (Homo sapiens, UniProt Q9UKI8)	89.1%
EGFR (Homo sapiens, UniProt P00533, del747-750/T751S)	85.5%
EPHA3 (Homo sapiens, UniProt P29320)	89.8%
BUB1 (Homo sapiens, UniProt O43683)	99.8%

Sample 4
Target: Calcium/calmodulin-dependent protein kinase type II subunit alpha (CAMK2A, Homo sapiens, UniProt Q9UQM7)
Observed: enzyme activity
Mode: inhibitor
Tested at: 10 µM
SMILES	inhibition [%]
CCCCCCCCCC(C)O (centres unmarked)	-13
COc1ccc(-c2coc3c([C@@H]4O[C@H](CO)[C@@H](O)[C@H](O)[C@H]4O)c(O)ccc3c2=O)cc1	-7
CC(C)(C(=O)O)C(=O)O	-22
C[C@H](CCC(=O)O)[C@H]1CC[C@H]2[C@@H]3C[C@H](O)[C@@H]4C[C@H](O)CC[C@]4(C)[C@H]3CC[C@]12C	-1
COc1cc(/C=C/C(=O)CC(=O)CCc2ccc(O)c(OC)c2)ccc1O	6
CCCCCCCCCCCCCCCCCC(=O)OC	14
CCN(CC)CCOCCOC(=O)C(CC)(CC)c1ccccc1	-12
Cc1nccn1CC1CCc2c(c3ccccc3n2C)C1=O (centres unmarked)	-2
C[C@]12CC[C@@H](O)C[C@H]1CC[C@@H]1[C@@H]2[C@@H](O)C[C@@]2(C)[C@H]1CC[C@]2(O)C(=O)CO	-2
COc1ccc(/C=C/C(=O)/C=C(O)/C=C/c2ccc(OC)c(OC)c2)cc1OC	19
O=C(c1ccc(O)cc1)c1c(O)cc(O)c([C@@H]2O[C@H](CO)[C@@H](O)[C@H](O)[C@H]2O)c1O	4
COC(=O)c1ccc(O)cc1	14
O=C(/C=C/c1ccc(O)c(O)c1)O[C@@H]1C[C@@](O)(C(=O)O)C[C@@H](O)[C@@H]1O	-3
CCC(C)(C)C(=O)O[C@H]1C[C@@H](C)C=C2C=C[C@H](C)[C@H](CC[C@@H](O)C[C@@H](O)CC(=O)O)[C@H]21	-6
CCCCCCCCCCCCCCCC(=O)OC[C@H](COP(=O)([O-])OCC[N+](C)(C)C)OC(=O)CCCCCCCCCCCCCCC	21
CCN(CC)CCOC(=O)C(c1ccccc1)C1CCCCC1 (centres unmarked)	-2

A few entries again (sample 4):
SMILES	inhibition [%]
C[C@H](CCC(=O)O)[C@H]1CC[C@H]2[C@@H]3C[C@H](O)[C@@H]4C[C@H](O)CC[C@]4(C)[C@H]3CC[C@]12C	-1
CCC(C)(C)C(=O)O[C@H]1C[C@@H](C)C=C2C=C[C@H](C)[C@H](CC[C@@H](O)C[C@@H](O)CC(=O)O)[C@H]21	-6
COc1cc(/C=C/C(=O)CC(=O)CCc2ccc(O)c(OC)c2)ccc1O	6
CCN(CC)CCOC(=O)C(c1ccccc1)C1CCCCC1 (centres unmarked)	-2
COc1ccc(/C=C/C(=O)/C=C(O)/C=C/c2ccc(OC)c(OC)c2)cc1OC	19
CC(C)(C(=O)O)C(=O)O	-22
O=C(c1ccc(O)cc1)c1c(O)cc(O)c([C@@H]2O[C@H](CO)[C@@H](O)[C@H](O)[C@H]2O)c1O	4
